Measurements pooled from the literature.
Compare with care: the assays were run in different laboratories. Several values in a cell are separate wells, animals, samples, runs or records. Numbers after ± are the reported error.

SMILES | cell line | test | setting | EC50
CC(C)C[C@@H](/C=C/[C@H](Cc1ccccc1)C(=O)N1CCC[C@H]1C(=O)N[C@H](C(=O)N[C@@H](CCCNC(=O)OCc1ccccc1)C(=O)NC1CC(C)(C)N([O])C(C)(C)C1)C(C)C)NC(=O)OC(C)(C)C | HT-1080 | protection from ferroptosis, PrestoBlue | 24 h, together with: erastin 10 µM | 0.114 µM
CC[C@H](C)[C@H](NC(=O)[C@H](CO)NC(=O)[C@@H]1CCCN1C(=O)C(C)(C)NC(=O)[C@H](CC(C)C)NC(=O)[C@H](CC(N)=O)NC(=O)[C@@](C)(CC)NC(C)=O)C(=O)NC(C)(C)C(=O)N1CCC[C@H]1C(=O)NC(C)(C)C(=O)N[C@@H](CC(C)C)C(=O)NC(C)(C)C(=O)N1CCC[C@H]1C(=O)N[C@H](CO)CC(C)C | HepG2 | cytotoxicity, MTS | 48 h | > 25 µM
N[C@@H]1C[C@H]1c1ccccc1 (racemic) | TF-1a | cell growth or viability, resazurin |  | > 2 µM
CCOC(=O)CCCCC[C@@H]1NC(=O)[C@H]2CCCCN2C(=O)[C@H]([C@@H](C)CC)NC(=O)[C@H](Cc2c[nH]c3ccccc23)NC1=O | human iPSC-derived NPCs | inducer, ELISA, item: intracellular progranulin | 18 h | 9 ± 2 µM
CC[C@H](C)[C@H](NC(=O)[C@H](CCCNC(=N)N)NC(=O)[C@H](CCCNC(=N)N)NC(=O)[C@H](CC(C)C)NC(=O)[C@H](CCC(=O)O)NC(=O)[C@H](CCC(N)=O)NC(=O)[C@H](C)NC(=O)[C@@H](NC(=O)[C@H](CNC(=O)CCl)NC(=O)[C@H](CCCNC(=N)N)NC(=O)[C@H](CCCNC(=N)N)NC(=O)[C@@H]1CCCN1C(=O)[C@H](CCCNC(=N)N)NC(=O)[C@H](CCCNC(=N)N)NC(=O)[C@@H]1CCCN1C(=O)[C@H](CCCNC(=N)N)NC(=O)[C@H](CCCNC(=N)N)NC(=O)[C@@H]1CCCN1C(=O)[C@H](CCCNC(=N)N)NC(=O)[C@H](CCCNC(=N)N)NC(=O)[C@@H]1CCCN1C(=O)[C@H](CCCNC(=N)N)NC(=O)[C@H](CCCNC(=N)N)NC(=O)[C@@H]1CCCN1C(C)=O)[C@@H](C)CC)C(=O)NCC(=O)N[C@@H](CC(=O)O)C(=O)N[C@@H](CCC(=O)O)C(=O)N[C@@H](Cc1ccccc1)C(=O)N[C@@H](CC(N)=O)C(=O)N[C@@H](C)C(=O)N[C@@H](Cc1ccc(O)cc1)C(=O)N[C@@H](Cc1ccc(O)cc1)C(=O)N[C@@H](C)C(=O)N[C@@H](CCCNC(=N)N)C(=O)N[C@@H](CCCNC(=N)N)C(N)=O | primary CLL cells, fludarabine/etoposide resistant | specific induced apoptosis, flow cytometry | 48 h | < 5 µM
CCCCCCCC(=O)NC(C)(C)C(=O)NCC(=O)N[C@H](C(=O)NC(C)(C)C(=O)NCC(=O)N[C@H](C(=O)N[C@H](CO)CC(C)C)[C@@H](C)CC)C(C)C | HepG2 | cytotoxicity, MTS | 48 h | > 25 µM
F[P-](F)(F)(F)(F)F.F[P-](F)(F)(F)(F)F.[Ru+2].c1ccc(-c2ccccn2)nc1.c1ccc(-c2ccccn2)nc1.c1csc(-c2ccc(-c3ccc(-c4cc5cccnc5c5ncccc45)s3)s2)c1 | HL-60 | cell viability, resazurin | 16 h drug-to-light interval, together with: visible light 100 J/cm2 | 0.21 ± 0.01 µM
Cc1nc(C(=O)N[C@@H](CCCNC(=N)N)C(=O)NCC(=O)N[C@@H](CC(=O)O)C(=O)N[C@@H](CO)C(=O)NC2CC(C)(C)N([O])C(C)(C)C2)cc2c1[nH]c1ccccc12 | PC-12 | cytoprotection, MTT | 1 h pretreatment, together with: 2 mM sodium nitroprusside 2 h | 61.5 ± 3.7 µM
C[C@@H](NC(=O)[C@H](Cc1ccccc1)NC(=O)[C@@H](CCCNC(=N)N)NC(=O)[C@H](CCCN)NC(=O)[C@@H]1CNC(=O)c2cc3cc(c2)C(=O)N[C@H](Cc2ccc4ccccc4c2)C(=O)N[C@@H]([C@@H](C)O)C(=O)N[C@@H](CC(N)=O)C(=O)N[C@H](Cc2ccc4ccccc4c2)C(=O)N[C@@H](c2ccccc2)C(=O)N[C@@H](CCCCNC3=O)C(=O)N[C@H](Cc2ccccc2)C(=O)N[C@@H](CCC(N)=O)C(=O)N[C@H](CCCNC(=N)N)C(=O)N[C@@H](CCCNC(=N)N)C(=O)N1)C(N)=O | H358 | cell viability, CellTiter-Glo | 96 h, 10% FBS | 23 ± 17 µM
CC[C@H](C)[C@H](NC(=O)CNC(=O)[C@H](CC(=O)O)NC(=O)[C@H](CCCNC(=N)N)NC(=O)[C@@H](NC(=O)[C@H](CC(N)=O)NC(=O)[C@H](CCC(N)=O)NC(=O)CNC(=O)[C@@H](NC(=O)[C@H](CCCCN)NC(=O)[C@H](CCC(=O)O)NC(=O)[C@@H](NC(=O)[C@H](CCCCN)NC(=O)[C@H](CCCCN)NC(=O)[C@H](Cc1ccccc1)NC(=O)[C@H](CC(C)C)NC(=O)[C@H](CCCCN)NC(=O)[C@H](Cc1c[nH]c2ccccc12)NC(=O)[C@@H](N)CCCCN)[C@@H](C)CC)C(C)C)[C@@H](C)CC)C(=O)N[C@H](C(=O)N[C@@H](CCCCN)C(=O)N[C@@H](C)C(=O)NCC(=O)N1CCC[C@H]1C(=O)N[C@@H](C)C(=O)N[C@H](C(=O)N[C@@H](C)C(=O)N[C@H](C(=O)N[C@H](C(=O)NCC(=O)N[C@@H](CCC(N)=O)C(=O)N[C@@H](C)C(=O)N[C@H](C(=O)N[C@@H](CCC(N)=O)C(=O)N[C@H](C(=O)N[C@@H](C)C(=O)N[C@@H](CCCCN)C(N)=O)[C@@H](C)CC)[C@@H](C)O)C(C)C)C(C)C)C(C)C)[C@@H](C)CC | sheep erythrocytes | turbidity | pH 7.5 | ≥ 12 µM
C[C@@H](NC(=O)[C@H](Cc1ccccc1)NC(=O)[C@@H](CCCNC(=N)N)NC(=O)[C@H](CCCN)NC(=O)[C@@H]1CNC(=O)c2cc3cc(c2)C(=O)N[C@H](Cc2ccc4ccccc4c2)C(=O)N[C@@H](CCO)C(=O)N[C@@H](CC(N)=O)C(=O)N[C@H](Cc2ccc4ccccc4c2)C(=O)N[C@@H](c2ccccc2)C(=O)N[C@@H](CCCCNC3=O)C(=O)N[C@H](Cc2ccccc2)C(=O)N[C@@H](CCC(N)=O)C(=O)N[C@H](CCCNC(=N)N)C(=O)N[C@@H](CCCNC(=N)N)C(=O)N1)C(N)=O | H358 | cell viability, CellTiter-Glo | 96 h, 10% FBS | 5.9 ± 0.5 µM
CC[C@H](C)[C@H](NC(=O)[C@H](CC(N)=O)NC(=O)[C@H](CCCCN)NC(=O)[C@H](Cc1ccccc1)NC(=O)[C@H](Cc1ccccc1)NC(=O)[C@H](Cc1c[nH]cn1)NC(=O)[C@@H](NC(=O)[C@@H](NC(=O)[C@@H]1CCCN1C(=O)[C@@H](N)CC(N)=O)C(C)C)C(C)C)C(=O)N[C@H](C(=O)N[C@H](C(=O)N[C@@H](C)C(=O)O)[C@@H](C)O)C(C)C | T cell clone Ob.2F3 | T cell proliferation, agonist, [3H]thymidine incorporation | 72 h, peptide-pulsed APC, together with: EBV-transformed B cells DR2/DQ6 as APC | > 50 µM
CC(C)[C@H](NC(=O)CNC(=O)[C@H](Cc1c[nH]c2ccccc12)NC(=O)[C@@H]1CCCN1C(=O)[C@H](CC(=O)O)NC(=O)[C@H](CCC(N)=O)NC(=O)[C@H](CCC(=O)O)NC(=O)[C@@H](N)Cc1ccc(O)cc1)C(=O)N[C@@H](CCCCN)C(=O)N[C@@H](Cc1c[nH]c2ccccc12)C(=O)N[C@@H](Cc1c[nH]c2ccccc12)C(=O)N[C@@H](Cc1ccc(O)cc1)C(=O)NCC(=O)NCC(=O)NCC(=O)N[C@@H](CO)C(=O)N[C@@H](CCCCN)C(=O)N[C@@H](CCCCN)C(=O)N[C@@H](CCCCN)C(=O)N[C@@H](CSC1CC(=O)N(CCC(=O)NCCCC[C@H](NC(=O)CNC(=O)[C@H](CCCCNC(=O)CCN2C(=O)CC(SC[C@H](NC(=O)[C@H](CCCCN)NC(=O)[C@H](CCCCN)NC(=O)[C@H](CCCCN)NC(=O)[C@H](CO)NC(=O)CNC(=O)CNC(=O)CNC(=O)[C@H](Cc3ccc(O)cc3)NC(=O)[C@H](Cc3c[nH]c4ccccc34)NC(=O)[C@H](Cc3c[nH]c4ccccc34)NC(=O)[C@H](CCCCN)NC(=O)[C@@H](NC(=O)CNC(=O)[C@H](Cc3c[nH]c4ccccc34)NC(=O)[C@@H]3CCCN3C(=O)[C@H](CC(=O)O)NC(=O)[C@H](CCC(N)=O)NC(=O)[C@H](CCC(=O)O)NC(=O)[C@@H](N)Cc3ccc(O)cc3)C(C)C)C(N)=O)C2=O)NC(=O)CNC(=O)[C@H](CCCCNC(=O)CCN2C(=O)CC(SC[C@H](NC(=O)[C@H](CCCCN)NC(=O)[C@H](CCCCN)NC(=O)[C@H](CCCCN)NC(=O)[C@H](CO)NC(=O)CNC(=O)CNC(=O)CNC(=O)[C@H](Cc3ccc(O)cc3)NC(=O)[C@H](Cc3c[nH]c4ccccc34)NC(=O)[C@H](Cc3c[nH]c4ccccc34)NC(=O)[C@H](CCCCN)NC(=O)[C@@H](NC(=O)CNC(=O)[C@H](Cc3c[nH]c4ccccc34)NC(=O)[C@@H]3CCCN3C(=O)[C@H](CC(=O)O)NC(=O)[C@H](CCC(N)=O)NC(=O)[C@H](CCC(=O)O)NC(=O)[C@@H](N)Cc3ccc(O)cc3)C(C)C)C(N)=O)C2=O)NC(=O)CNC(=O)[C@H](CCCCNC(=O)CCN2C(=O)CC(SC[C@H](NC(=O)[C@H](CCCCN)NC(=O)[C@H](CCCCN)NC(=O)[C@H](CCCCN)NC(=O)[C@H](CO)NC(=O)CNC(=O)CNC(=O)CNC(=O)[C@H](Cc3ccc(O)cc3)NC(=O)[C@H](Cc3c[nH]c4ccccc34)NC(=O)[C@H](Cc3c[nH]c4ccccc34)NC(=O)[C@H](CCCCN)NC(=O)[C@@H](NC(=O)CNC(=O)[C@H](Cc3c[nH]c4ccccc34)NC(=O)[C@@H]3CCCN3C(=O)[C@H](CC(=O)O)NC(=O)[C@H](CCC(N)=O)NC(=O)[C@H](CCC(=O)O)NC(=O)[C@@H](N)Cc3ccc(O)cc3)C(C)C)C(N)=O)C2=O)NC(=O)CNC(=O)CCCC[C@@H]2SC[C@@H]3NC(=O)N[C@@H]32)C(N)=O)C1=O)C(N)=O (stereo partly shown) | M2 macrophages | cell viability, propidium iodide staining | 2 h | 1.12 µM
CC(C)C[C@H](NC=O)C(=O)N[C@@H](C)C(=O)N[C@@H](C)C(=O)N[C@@H](CC(=O)O)C(=O)N[C@@H](CC(C)C)C(=O)N[C@@H](CC(C)C)C(=O)N[C@@H](C)C(=O)N[C@@H](C)C(=O)N[C@@H](CC(C)C)C(=O)NCC(=O)N[C@@H](CC(=O)O)C(=O)N[C@@H](CC(C)C)C(=O)N[C@@H](CC(C)C)C(=O)N[C@@H](CCCCN)C(=O)N[C@@H](Cc1c[nH]c2ccccc12)C(=O)N[C@@H](CC(C)C)C(=O)N[C@@H](CC(C)C)C(=O)N[C@@H](CC(=O)O)C(=O)N[C@@H](C)C(=O)N[C@@H](CC(C)C)C(=O)N[C@@H](C)C(=O)N[C@@H](CCCCN)C(=O)N[C@@H](CC(C)C)C(=O)N[C@@H](C)C(=O)N[C@@H](CCCCN)C(=O)N[C@@H](CCCCN)C(=O)O (racemic) | sheep erythrocytes | turbidity | pH 7.5 | ≥ 80 µM
C[C@@H]1NC(=O)[C@@H](Cc2ccccc2)NC(=O)[C@@H]2CCCCNC(=O)c3cc(cc(c3)C(=O)N[C@H](Cc3ccc4ccccc4c3)C(=O)N[C@@H](CO)C(=O)N[C@@H](CC(N)=O)C(=O)N[C@H](Cc3ccc4ccccc4c3)C(=O)N[C@@H](c3ccccc3)C(=O)N2)C(=O)NC[C@@H](C(=O)N[C@@H](CCN)C(=O)N[C@H](CCCNC(=N)N)C(=O)N[C@@H](Cc2ccc(F)cc2)C(=O)N[C@H](C)C(N)=O)NC(=O)[C@H](CCCNC(=N)N)NC(=O)[C@@H](CCCNC(=N)N)NC1=O | H358 | cell viability, CellTiter-Glo | 96 h, 10% FBS | 12 ± 8 µM
F[P-](F)(F)(F)(F)F.F[P-](F)(F)(F)(F)F.[Ru+2].c1ccc(-c2ccccn2)nc1.c1ccc(-c2ccccn2)nc1.c1csc(-c2cc3cccnc3c3ncccc23)c1 | HL-60 | cell viability, resazurin | 16 h drug-to-light interval, together with: visible light 100 J/cm2 | 6.82 µM and 6.8 µM
